Experimental data gathered from unrelated publications.
Lines come from different studies, so protocols differ.
HLA class I histocompatibility antigen, A alpha chain: HLA class I histocompatibility antigen, A alpha chain (Homo sapiens, UniProt P04439)
NEU1: Sialidase-1 (NEU1, Homo sapiens, UniProt Q99519)
CTSB: Cathepsin B (CTSB, Homo sapiens, UniProt P07858)
Proteasome component C5/PSMB5 chymotrypsin-like site: Proteasome component C5/PSMB5, chymotrypsin-like site (Homo sapiens, UniProt P20618+P28074)
Sequence of UniProt P20618 (whole entry, looked up): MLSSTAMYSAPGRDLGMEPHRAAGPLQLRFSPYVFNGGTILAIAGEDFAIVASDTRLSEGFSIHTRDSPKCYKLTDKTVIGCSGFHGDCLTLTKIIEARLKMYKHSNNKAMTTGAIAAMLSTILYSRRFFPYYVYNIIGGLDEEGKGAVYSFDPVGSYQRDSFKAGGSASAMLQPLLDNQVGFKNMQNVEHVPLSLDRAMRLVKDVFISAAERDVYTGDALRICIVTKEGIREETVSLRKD
Sequence of UniProt P28074 (whole entry, looked up): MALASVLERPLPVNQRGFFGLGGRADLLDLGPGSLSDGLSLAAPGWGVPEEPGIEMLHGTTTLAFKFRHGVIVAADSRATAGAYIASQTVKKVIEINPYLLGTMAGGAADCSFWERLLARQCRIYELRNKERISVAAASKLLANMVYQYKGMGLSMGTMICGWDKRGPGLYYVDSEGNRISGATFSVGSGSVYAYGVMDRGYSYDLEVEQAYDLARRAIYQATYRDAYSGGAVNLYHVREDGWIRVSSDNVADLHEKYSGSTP
Sequence of UniProt P07550 (whole entry, looked up): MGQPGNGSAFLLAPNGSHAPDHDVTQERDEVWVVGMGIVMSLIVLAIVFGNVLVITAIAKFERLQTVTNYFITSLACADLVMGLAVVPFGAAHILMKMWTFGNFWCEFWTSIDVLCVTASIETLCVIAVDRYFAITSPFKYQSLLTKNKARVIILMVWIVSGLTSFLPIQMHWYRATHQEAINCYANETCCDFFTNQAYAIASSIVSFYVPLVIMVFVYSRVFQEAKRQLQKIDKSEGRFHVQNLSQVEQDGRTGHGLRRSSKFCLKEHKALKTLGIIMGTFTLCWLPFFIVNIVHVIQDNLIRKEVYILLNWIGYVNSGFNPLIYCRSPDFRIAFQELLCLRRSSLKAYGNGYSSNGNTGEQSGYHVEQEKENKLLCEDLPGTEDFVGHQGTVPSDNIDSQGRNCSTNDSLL
Sequence of UniProt Q04771 (whole entry, looked up): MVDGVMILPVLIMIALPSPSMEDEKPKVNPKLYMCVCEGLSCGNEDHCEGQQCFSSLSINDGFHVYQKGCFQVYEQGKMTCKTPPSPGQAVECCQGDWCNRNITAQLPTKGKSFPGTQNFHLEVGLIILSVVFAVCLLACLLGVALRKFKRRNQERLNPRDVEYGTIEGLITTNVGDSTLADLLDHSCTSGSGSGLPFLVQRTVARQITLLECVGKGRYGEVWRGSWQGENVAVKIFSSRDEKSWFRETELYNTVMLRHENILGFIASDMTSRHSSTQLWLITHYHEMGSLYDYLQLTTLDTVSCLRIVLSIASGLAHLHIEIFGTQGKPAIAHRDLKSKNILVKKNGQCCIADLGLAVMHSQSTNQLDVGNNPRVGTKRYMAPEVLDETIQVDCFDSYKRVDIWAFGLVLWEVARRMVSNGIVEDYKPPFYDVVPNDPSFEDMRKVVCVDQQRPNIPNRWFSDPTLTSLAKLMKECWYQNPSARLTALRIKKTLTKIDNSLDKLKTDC
Sequence of UniProt Q93009 (whole entry, looked up): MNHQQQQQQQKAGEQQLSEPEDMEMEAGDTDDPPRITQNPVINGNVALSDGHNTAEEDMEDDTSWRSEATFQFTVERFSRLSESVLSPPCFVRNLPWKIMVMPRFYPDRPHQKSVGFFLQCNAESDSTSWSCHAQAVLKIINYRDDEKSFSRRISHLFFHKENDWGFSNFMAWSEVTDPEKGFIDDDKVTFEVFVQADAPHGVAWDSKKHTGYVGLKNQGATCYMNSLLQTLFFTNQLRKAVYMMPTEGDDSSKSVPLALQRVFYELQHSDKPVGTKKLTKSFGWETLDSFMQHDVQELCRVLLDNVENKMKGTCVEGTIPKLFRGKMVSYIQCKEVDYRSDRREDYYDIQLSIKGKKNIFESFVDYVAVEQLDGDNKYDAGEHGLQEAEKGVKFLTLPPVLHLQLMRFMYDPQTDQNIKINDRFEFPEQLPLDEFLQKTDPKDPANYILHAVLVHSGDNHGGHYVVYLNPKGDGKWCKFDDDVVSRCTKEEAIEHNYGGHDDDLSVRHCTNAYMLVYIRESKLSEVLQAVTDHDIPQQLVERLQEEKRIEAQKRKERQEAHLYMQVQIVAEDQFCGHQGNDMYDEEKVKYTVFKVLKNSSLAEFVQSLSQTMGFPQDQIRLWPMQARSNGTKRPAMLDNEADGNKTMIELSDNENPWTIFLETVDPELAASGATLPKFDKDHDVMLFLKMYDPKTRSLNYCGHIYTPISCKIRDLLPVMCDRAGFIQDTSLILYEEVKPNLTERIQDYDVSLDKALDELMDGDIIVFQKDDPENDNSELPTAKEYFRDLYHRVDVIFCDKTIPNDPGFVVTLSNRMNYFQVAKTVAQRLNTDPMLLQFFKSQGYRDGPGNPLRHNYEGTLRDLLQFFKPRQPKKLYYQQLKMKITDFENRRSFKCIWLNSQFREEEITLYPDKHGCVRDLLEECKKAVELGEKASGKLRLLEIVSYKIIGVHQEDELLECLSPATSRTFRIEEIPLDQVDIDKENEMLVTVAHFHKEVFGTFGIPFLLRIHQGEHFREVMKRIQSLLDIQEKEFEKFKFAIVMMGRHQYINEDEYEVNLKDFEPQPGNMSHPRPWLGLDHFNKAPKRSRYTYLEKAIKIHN
Sequence of UniProt P78536 (whole entry, looked up): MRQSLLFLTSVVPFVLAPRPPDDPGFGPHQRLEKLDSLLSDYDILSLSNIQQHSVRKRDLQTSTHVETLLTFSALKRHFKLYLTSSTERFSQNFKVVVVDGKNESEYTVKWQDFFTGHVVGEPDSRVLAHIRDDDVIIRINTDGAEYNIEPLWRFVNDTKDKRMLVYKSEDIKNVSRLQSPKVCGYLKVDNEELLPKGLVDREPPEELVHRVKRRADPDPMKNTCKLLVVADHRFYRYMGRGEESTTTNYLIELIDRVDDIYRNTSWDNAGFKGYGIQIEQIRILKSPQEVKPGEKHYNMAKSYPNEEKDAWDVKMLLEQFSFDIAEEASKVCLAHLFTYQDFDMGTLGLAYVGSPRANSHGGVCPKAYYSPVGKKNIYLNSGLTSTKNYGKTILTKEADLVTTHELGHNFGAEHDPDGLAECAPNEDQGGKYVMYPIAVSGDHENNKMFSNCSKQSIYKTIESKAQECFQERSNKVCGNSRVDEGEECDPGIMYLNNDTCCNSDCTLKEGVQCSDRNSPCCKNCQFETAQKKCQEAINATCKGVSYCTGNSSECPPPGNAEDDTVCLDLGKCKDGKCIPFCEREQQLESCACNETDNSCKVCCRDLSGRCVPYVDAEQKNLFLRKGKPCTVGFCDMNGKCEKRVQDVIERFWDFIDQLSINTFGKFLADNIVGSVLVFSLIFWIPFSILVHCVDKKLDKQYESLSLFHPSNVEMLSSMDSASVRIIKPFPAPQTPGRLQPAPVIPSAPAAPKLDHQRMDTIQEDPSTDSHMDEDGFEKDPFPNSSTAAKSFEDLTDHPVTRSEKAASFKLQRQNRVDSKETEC
Sequence of UniProt Q7K4Y6 (whole entry, unmodified, looked up): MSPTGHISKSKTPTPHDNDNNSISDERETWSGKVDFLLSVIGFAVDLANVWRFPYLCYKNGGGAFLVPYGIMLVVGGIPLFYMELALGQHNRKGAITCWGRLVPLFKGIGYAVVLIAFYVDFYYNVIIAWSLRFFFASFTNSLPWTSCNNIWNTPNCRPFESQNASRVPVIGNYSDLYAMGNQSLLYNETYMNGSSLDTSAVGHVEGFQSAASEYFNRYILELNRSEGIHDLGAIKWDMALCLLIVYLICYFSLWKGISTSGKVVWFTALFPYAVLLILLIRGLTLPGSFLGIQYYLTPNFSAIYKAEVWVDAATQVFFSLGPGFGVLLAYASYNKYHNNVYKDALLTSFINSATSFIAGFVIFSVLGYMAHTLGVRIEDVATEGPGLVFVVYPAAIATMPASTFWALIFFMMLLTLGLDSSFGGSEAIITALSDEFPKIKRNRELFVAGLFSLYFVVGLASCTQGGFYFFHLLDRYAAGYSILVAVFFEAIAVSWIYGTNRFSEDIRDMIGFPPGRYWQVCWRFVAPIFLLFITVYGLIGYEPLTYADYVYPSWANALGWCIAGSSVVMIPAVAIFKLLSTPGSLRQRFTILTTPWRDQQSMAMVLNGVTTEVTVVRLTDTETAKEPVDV
Sequence of UniProt P42574 (whole entry, looked up): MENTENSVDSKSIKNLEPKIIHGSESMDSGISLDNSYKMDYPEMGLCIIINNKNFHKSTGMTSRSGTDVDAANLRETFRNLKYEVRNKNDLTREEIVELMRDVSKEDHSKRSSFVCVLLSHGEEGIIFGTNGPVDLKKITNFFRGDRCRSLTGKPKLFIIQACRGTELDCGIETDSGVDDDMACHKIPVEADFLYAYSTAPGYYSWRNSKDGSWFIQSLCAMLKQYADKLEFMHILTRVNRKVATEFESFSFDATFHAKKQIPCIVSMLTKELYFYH
Sequence of UniProt P27487 (whole entry, looked up): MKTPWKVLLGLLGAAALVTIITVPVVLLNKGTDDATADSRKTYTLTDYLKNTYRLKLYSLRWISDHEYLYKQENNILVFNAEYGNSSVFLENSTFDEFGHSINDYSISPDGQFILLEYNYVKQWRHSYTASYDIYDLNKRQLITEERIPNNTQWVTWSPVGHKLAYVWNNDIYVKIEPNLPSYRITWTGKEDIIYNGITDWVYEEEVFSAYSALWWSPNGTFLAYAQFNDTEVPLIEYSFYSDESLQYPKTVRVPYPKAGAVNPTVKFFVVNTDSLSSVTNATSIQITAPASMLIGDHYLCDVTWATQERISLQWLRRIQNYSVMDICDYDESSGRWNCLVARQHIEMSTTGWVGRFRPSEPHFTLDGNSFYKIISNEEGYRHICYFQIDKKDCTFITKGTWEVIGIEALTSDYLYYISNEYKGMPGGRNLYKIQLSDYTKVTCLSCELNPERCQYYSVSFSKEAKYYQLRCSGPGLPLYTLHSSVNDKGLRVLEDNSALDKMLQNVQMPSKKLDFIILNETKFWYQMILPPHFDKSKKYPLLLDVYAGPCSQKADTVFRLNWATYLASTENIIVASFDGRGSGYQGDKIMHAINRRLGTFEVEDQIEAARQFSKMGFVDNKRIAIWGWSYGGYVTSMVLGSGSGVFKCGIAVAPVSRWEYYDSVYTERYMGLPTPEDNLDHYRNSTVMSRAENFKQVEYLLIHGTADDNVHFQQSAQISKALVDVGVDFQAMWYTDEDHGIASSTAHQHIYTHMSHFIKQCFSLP

| SMILES | target | assay | conditions | measurement | value |
| --- | --- | --- | --- | --- | --- |
| O=C(O)CP(=O)(O)CO | ENO1 (Candida albicans, UniProt P30575) | enzyme activity, inhibitor, absorbance |  | IC50 | > 50000 nM |
| CCC(C(=O)Nc1cc(NC2CCNCC2)ccc1C)n1cc(Cl)cc2nc(SCc3ccc(F)cc3)nc1-2 (centres unmarked) | Prothrombin (F2, Homo sapiens, UniProt P00734) | enzyme activity, inhibitor |  | IC50 | > 100000 nM |
| CSCC[C@H](NC(=O)[C@@H](N)Cc1ccc(O)cc1)C(=O)N[C@@H](Cc1ccc(O)cc1)C(=O)N[C@H](C(=O)N[C@@H](CCCCN)C(=O)N[C@@H](Cc1ccccc1)C(=O)N[C@@H](Cc1c[nH]cn1)C(=O)N[C@H](C(=O)N[C@@H](Cc1ccc(O)cc1)C(=O)O)[C@@H](C)O)[C@@H](C)O | HLA class I histocompatibility antigen, A alpha chain | cell-free assay |  | IC50 | 100 nM |
| CC(C)(C)CN[C@H]1[C@H]([C@H](O)[C@H](O)CO)OC(C(=O)O)=C[C@@H]1O | NEU1 | enzyme activity, inhibitor |  | IC50 | 115000 nM |
| CCC(C(=O)Nc1cc(NC2CCOCC2)ccc1C)n1cc(Br)cc2nc(SCc3ccc(F)cc3)nc1-2 (centres unmarked) | CTSB | enzyme activity, inhibitor |  | IC50 | > 100000 nM |
| CC[C@H](C)[C@H](NC(=O)[C@@H]1CCCN1C(=O)CNC(=O)[C@@H]1CCCN1C(=O)[C@H](Cc1ccc(O)cc1)NC(=O)[C@H](CC(C)C)NC(=O)[C@@H](N)CCCCN)C(=O)N[C@@H](CC(C)C)C(=O)N[C@@H](CCSC)C(=O)O | HLA class I histocompatibility antigen, A alpha chain | cell-free assay |  | IC50 | 375 nM |
| CCC(C(=O)Nc1cc(NC2COC2)ccc1C)n1cc(Br)cc2nc(SCc3ccc(F)cc3)nc1-2 (centres unmarked) | CTSB | enzyme activity, inhibitor |  | IC50 | > 100000 nM |
| COc1ccc(C[C@H](NC(=O)[C@H](C)NC(=O)CN2CCOCC2)C(=O)N[C@@H](CC(C)C)C(=O)C(=O)Nc2ccccc2)cc1 | Proteasome component C5/PSMB5 chymotrypsin-like site | enzyme activity in cells, inhibitor |  | IC50 | 724 nM |
| CCC(C(=O)Nc1cc(NC2CCNC2)ccc1C)n1cc(Br)cc2nc(SCc3ccc(F)cc3)nc1-2 (centres unmarked) | Caspase-3 (CASP3, Homo sapiens, UniProt P42574) | enzyme activity, inhibitor |  | IC50 | > 100000 nM |
| CC(C)[C@H](N)C(=O)N1CCC[C@H]1C(=O)N[C@H](C(=O)N1CCC[C@H]1C(=O)N[C@@H](Cc1ccccc1)C(=O)O)C(C)C | DPP4 (Homo sapiens, UniProt P27487) | enzyme activity, inhibitor, absorbance | pH 8 | IC50 | 81900 nM |
| CC(C)C[C@H](NC(=O)[C@H](CCC(=O)O)NC(=O)[C@H](CC(C)C)NC(=O)[C@@H]1CCCN1C(=O)[C@H](CCCCN)NC(=O)[C@H](CO)NC(=O)[C@H](Cc1ccc(O)cc1)NC(=O)[C@@H](NC(=O)[C@@H](N)Cc1ccc(O)cc1)[C@@H](C)O)C(=O)O | HLA class I histocompatibility antigen, A alpha chain | cell-free assay |  | IC50 | 666 nM |
| CCCC(=O)NCCCN1CCc2c([nH]c3ccc(Cl)cc23)C1 | DAT (Drosophila melanogaster, UniProt Q7K4Y6, del162-202/L415A/V74A) | transporter uptake, inhibitor |  | IC50 | 120000 nM |
| CCC1(COCc2ccccc2F)CCC(C)(C)O1 (centres unmarked) | ADRB2 (Homo sapiens, UniProt P07550) | calcium signal, antagonist, fluorescence |  | IC50 | 13000 nM |
| CC(C)(C)NC(=O)N[C@H]1[C@H]([C@H](O)[C@H](O)CO)OC(C(=O)O)=C[C@@H]1O | NEU1 | enzyme activity, inhibitor |  | IC50 | > 500000 nM |
| CSCC[C@H](NC(=O)[C@@H](N)CCCNC(=N)N)C(=O)N[C@@H](Cc1ccc(O)cc1)C(=O)N[C@@H](CC(N)=O)C(=O)N1CCC[C@H]1C(=O)N[C@H](C(=O)N[C@@H](CC(C)C)C(=O)N[C@@H](CCCNC(=N)N)C(=O)N[C@@H](Cc1ccccc1)C(=O)O)C(C)C | HLA class I histocompatibility antigen, A alpha chain | cell-free assay |  | IC50 | 104 nM |
| COc1cc(NC(=O)C(=O)[C@H](CC(C)C)NC(=O)[C@H](CC(C)C)NC(=O)[C@H](CC(C)C)NC(=O)c2ccc(-c3ccc(C(C)=O)cc3)o2)cc(OC)c1 | Proteasome component C5/PSMB5 chymotrypsin-like site | enzyme activity in cells, inhibitor |  | IC50 | 32.4 nM |
| CC[C@H](C)[C@H](NC(=O)[C@H](Cc1c[nH]cn1)NC(=O)[C@@H]1CCCN1C(=O)[C@H](Cc1ccccc1)NC(=O)[C@H](CC(C)C)NC(=O)[C@H](C)N)C(=O)N[C@@H](CCSC)C(=O)N[C@H](C(=O)N[C@@H](Cc1ccc(O)cc1)C(=O)O)[C@@H](C)O | HLA class I histocompatibility antigen, A alpha chain | cell-free assay |  | IC50 | 105 nM |
| CNC(=O)[C@H](Cc1c[nH]c2ccccc12)NC(=O)[C@@H](CC(=O)NO)CC(C)C | ADAM17 (Homo sapiens, UniProt P78536) | enzyme activity, inhibitor |  | IC50 | 38.4 nM |
| CCC(C(=O)Nc1cc(NC2CNC2)ccc1C)n1cccc2nc(SCc3ccc(F)cc3)nc1-2 (centres unmarked) | USP7 (Homo sapiens, UniProt Q93009) | enzyme activity, inhibitor |  | IC50 | > 100000 nM |
| CC(C)C[C@H](NC(=O)OCc1ccccc1)C(=O)N[C@@H](Cc1ccccc1)C(=O)N[C@@H](CC(C)C)C(=O)C(=O)Nc1ccccc1 | Proteasome component C5/PSMB5 chymotrypsin-like site | enzyme activity in cells, inhibitor |  | IC50 | 234 nM |
| CC(C)C[C@H](NC(=O)[C@@H](N)CCCCN)C(=O)N[C@@H](Cc1ccccc1)C(=O)N1CCC[C@H]1C(=O)N[C@@H](Cc1c[nH]cn1)C(=O)N[C@@H](Cc1ccccc1)C(=O)N[C@@H](Cc1ccc(O)cc1)C(=O)N[C@@H](CCCNC(=N)N)C(=O)N[C@@H](Cc1ccccc1)C(=O)O | HLA class I histocompatibility antigen, A alpha chain | cell-free assay |  | IC50 | 88 nM |
| CC(C)CNC(=O)N[C@H]1[C@H]([C@H](O)[C@H](O)CO)OC(C(=O)O)=C[C@@H]1O | NEU1 | enzyme activity, inhibitor |  | IC50 | > 500000 nM |
| CC[C@H](C)[C@H](NC(=O)[C@@H](NC(=O)[C@H](CCCCN)NC(=O)[C@H](Cc1c[nH]cn1)NC(=O)[C@H](Cc1ccc(O)cc1)NC(=O)[C@H](CCSC)NC(=O)[C@@H](N)CCCNC(=N)N)C(C)C)C(=O)N[C@H](C(=O)N[C@@H](Cc1ccccc1)C(=O)O)[C@@H](C)O | HLA class I histocompatibility antigen, A alpha chain | cell-free assay |  | IC50 | 29 nM |
| [2H]c1c([2H])c([C@]2([2H])CCCN2C(=O)C(C)(C)Oc2ccc3cn[nH]c3c2)c([2H])c([2H])c1C([2H])([2H])[2H] | ACVR1 (Homo sapiens, UniProt Q04771) | binding, competition with immobilised ligand | 1 µM | remaining binding | 74% |
| CC[C@H](C)[C@H](NC(=O)[C@H](CCCNC(=N)N)NC(=O)[C@H](CC(N)=O)NC(=O)[C@H](Cc1ccccc1)NC(=O)[C@@H](NC(=O)[C@@H](N)Cc1ccc(O)cc1)[C@@H](C)O)C(=O)N[C@@H](Cc1c[nH]cn1)C(=O)N[C@@H](CCC(=O)O)C(=O)N[C@@H](Cc1ccccc1)C(=O)O | HLA class I histocompatibility antigen, A alpha chain | cell-free assay |  | IC50 | 48600 nM |
| CN(C(=O)CC(C)(C)C)[C@H]1[C@H]([C@H](O)[C@H](O)CO)OC(C(=O)O)=C[C@@H]1O | NEU1 | enzyme activity, inhibitor |  | IC50 | 290000 nM |

For quick reference, copied from above:
| SMILES | target | assay | conditions | measurement | value |
| --- | --- | --- | --- | --- | --- |
| CC[C@H](C)[C@H](NC(=O)[C@H](CCCNC(=N)N)NC(=O)[C@H](CC(N)=O)NC(=O)[C@H](Cc1ccccc1)NC(=O)[C@@H](NC(=O)[C@@H](N)Cc1ccc(O)cc1)[C@@H](C)O)C(=O)N[C@@H](Cc1c[nH]cn1)C(=O)N[C@@H](CCC(=O)O)C(=O)N[C@@H](Cc1ccccc1)C(=O)O | HLA class I histocompatibility antigen, A alpha chain | cell-free assay |  | IC50 | 48600 nM |
| CNC(=O)[C@H](Cc1c[nH]c2ccccc12)NC(=O)[C@@H](CC(=O)NO)CC(C)C | ADAM17 (Homo sapiens, UniProt P78536) | enzyme activity, inhibitor |  | IC50 | 38.4 nM |
